Experimental data collected from several papers.
A part holds a random share of what one study measured. Positions count from the first letter of the parent shown.

Series 1
Target: Cyclic AMP-dependent transcription factor ATF-1, full length (ATF1, Homo sapiens, UniProt P18846, residues 1-271)
Method: protein-binding microarray
Molecule type: hairpin DNA
Matrix: in vitro
Concentration: not given
Notes: whole hairpin DNA, median over replicate spots
Reference: not given
Direction: higher = stronger binding
Shared flanks, not repeated: GAGGCCG … CGGCCTCACACTC
Residues (chain): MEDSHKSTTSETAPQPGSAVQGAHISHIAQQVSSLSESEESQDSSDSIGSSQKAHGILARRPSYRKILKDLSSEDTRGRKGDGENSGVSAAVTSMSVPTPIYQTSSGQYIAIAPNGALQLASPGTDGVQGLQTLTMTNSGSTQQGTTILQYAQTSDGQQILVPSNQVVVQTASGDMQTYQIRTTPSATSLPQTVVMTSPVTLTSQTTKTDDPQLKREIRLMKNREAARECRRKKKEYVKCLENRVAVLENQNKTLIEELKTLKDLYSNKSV
| Oligonucleotide | median fluorescence |
| --- | --- |
| GCTGACGTCAGCCTCCTGGCTGACGTCAGC (5mC at 13) | 4890 a.u. |
| ACTACGTCGTGCCTCCTGGCACGACGTAGT (5mC at 9 15 29) | 5080 a.u. |
| ACCGCGTCGTGCCTCCTGGCACGACGCGGT (5mC at 9 10 15 29 34) | 4620 a.u. |
| ACGCGGTCGTGCCTCCTGGCACGACCGCGT (5mC at 9 11 15 29 33 35) | 3410 a.u. |
| GCTGACGACAGCCTCCTGGCTGTCGTCAGC | 4100 a.u. |
| ACAACGTCGTGCCTCCTGGCACGACGTTGT (5mC at 9 15 29) | 3920 a.u. |
| GATGACGTGAGCCTCCTGGCTCACGTCATC | 8100 a.u. |
| AGGACGTCGTGCCTCCTGGCACGACGTCCT (5mC at 15 29 35) | 3590 a.u. |
| GCCGACGTCAGCCTCCTGGCTGACGTCGGC (5mC at 34) | 4540 a.u. |
| ACGACCGCGTGCCTCCTGGCACGCGGTCGT (5mC at 9 15 29 31 35) | 3660 a.u. |
| GGTGACGTCAGCCTCCTGGCTGACGTCACC (5mC at 36) | 17800 a.u. |
| GATGTCGTCAGCCTCCTGGCTGACGACATC | 4410 a.u. |

Series 2
Target: CCNB1, cyclin fold, Cln2 fusion (human)
Method: yeast growth competition, sequencing
Matrix: yeast
Notes: strong parent motif
Reference: not given
Direction: higher = stronger binding
Parent: INSM1 docking peptide (human); PKAIRKLHFEDEV; partner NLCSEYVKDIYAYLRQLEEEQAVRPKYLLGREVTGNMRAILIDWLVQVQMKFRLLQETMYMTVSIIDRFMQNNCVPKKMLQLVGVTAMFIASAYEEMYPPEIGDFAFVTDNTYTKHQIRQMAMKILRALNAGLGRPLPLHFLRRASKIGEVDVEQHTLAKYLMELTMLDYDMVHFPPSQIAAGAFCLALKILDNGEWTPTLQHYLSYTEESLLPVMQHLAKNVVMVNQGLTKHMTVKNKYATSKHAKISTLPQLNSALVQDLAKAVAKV
| Change | normalised enrichment score |
| --- | --- |
| K2C | 4.16 |
| R5P | 0.191 |
| R5G | 0.278 |
| H8L | 2.93 |
| K2D | 3.69 |
| A3D | 0.0138 |
| K6T | 0.737 |
| E10A | 1.31 |
| L7W | -0.0051 |
| E10V | 0.925 |
| F9K | -0.179 |
| E10Y | 1.52 |
| A3R | 0.327 |
| L7C | 0.252 |
| L7E | -0.0834 |
| I4F | 1.26 |
| E12Q | 1.05 |
| I4L | 0.463 |
| E12W | 0.94 |

Series 3
Target: UBE2V2 UBC core domain (UniProt Q15819)
Method: yeast two-hybrid
Matrix: yeast
Notes: mostly zero background
Reference: not given
Direction: higher = stronger interaction
B1: IRF2BPL RING domain (UniProt Q9H1B7); chain SPMANSGPLCCTICHERLEDTHFVQCPSVPSHKFCFPCSRESIKAQGATGEVYCPSGEKCPLVGSNVP
B2: PHF21A RING domain (UniProt Q96BD5); chain SPTSTDGDIHEDFCSVCRKSGQLLMCDTCSRVYHLDCLDPPLKTIPKGMWICPRCQDQMLKKEEAIPW
B3: CUL9 RING domain (UniProt Q8IWT3); chain AQAVPVRPDHCPVCVSPLGCDDDLPSLCCMHYCCKSCWNEYLTTRIEQNLVLNCTCPIADCPAQPTGAFIR
B4: MID1 RING domain (UniProt O15344); chain METLESELTCPICLELFEDPLLLPCAHSLCFNCAHRILVSHCATNESVESITAFQCPTCRHVITLSQRGL
B5: ZNF598 RING domain (UniProt Q86UK7); chain AAAPERGGGSCVLCCGDLEATALGRCDHPVCYRCSTKMRVLCEQRYCAVCREELRQVVFGK
B6: ARK2C RING domain (UniProt Q6ZSG1); chain EGEESDTDEKCTICLSMLEDGEDVRRLPCMHLFHQLCVDQWLAMSKKCPICRVDIETQLGAD
Residues (chain): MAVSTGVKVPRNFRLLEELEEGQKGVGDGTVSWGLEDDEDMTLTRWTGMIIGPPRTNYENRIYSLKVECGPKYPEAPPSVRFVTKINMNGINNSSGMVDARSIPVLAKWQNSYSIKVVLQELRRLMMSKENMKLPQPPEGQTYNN
| Sequence | lacZ reporter activity |
| --- | --- |
| B1 (IRF2BPL RING domain) | 0 |
| EDEVSDNSAECVVCLSDVRDTLILPCRHLCLCNTCADTLRYQANNCPICRLPFRALLQIR (RNF157 RING domain (UniProt Q96PX1)) | 0 |
| B2 (PHF21A RING domain) | 0 |
| B3 (CUL9 RING domain) | 0 |
| B4 (MID1 RING domain) | 0 |
| B5 (ZNF598 RING domain) | 0 |
| B6 (ARK2C RING domain) | 0 |
| YWAMDSTFELCKICAESNKDVKIEPCGHLLCSCCLAAWQHSDSQTCPFCRCEIKGWEAVS (CBLC RING domain (UniProt Q9ULV8)) | 0 |
| QLRRLQEERTCKVCMDKEVSIVFIPCGHLVVCKDCAPSLRKCPICRSTIKGTVRTF (BIRC3 RING domain (UniProt Q13489)) | 0 |

Series 4
Target: PABPC1L2, full length, GST fusion (mouse, UniProt A0ABA7IW68)
Method: RNAcompete
Molecule type: RNA
Matrix: in vitro
Concentration: 20 nM
Notes: 7-mer, probes averaged, single round
Reference: mean of 7-mers
Direction: higher = stronger binding
Target sequence (chain): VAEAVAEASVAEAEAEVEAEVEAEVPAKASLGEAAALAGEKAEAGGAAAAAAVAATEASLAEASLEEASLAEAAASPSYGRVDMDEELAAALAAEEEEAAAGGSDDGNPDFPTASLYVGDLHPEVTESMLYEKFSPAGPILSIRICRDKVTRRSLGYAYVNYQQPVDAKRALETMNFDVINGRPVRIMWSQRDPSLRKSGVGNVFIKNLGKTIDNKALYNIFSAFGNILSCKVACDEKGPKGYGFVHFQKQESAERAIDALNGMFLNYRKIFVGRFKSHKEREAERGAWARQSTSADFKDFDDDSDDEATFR
| Oligonucleotide | 7-mer Z-score |
| --- | --- |
| CUUAGAA | 0.129 |
| CUCCAUG | -0.19 |
| CCUUUAC | -0.079 |
| CCGUAAU | -0.22 |
| UGGUUAU | -0.226 |
| UGCUCGC | -0.287 |
| CGCCUUC | -0.507 |
| GAGGACU | 0.0587 |
| CUUAUCG | -0.282 |
| GAGCGGA | 0.164 |
| AGCCGCU | -0.318 |
| GGAACCU | -0.0536 |
| CACCCAU | -0.324 |
| UUGCGAC | -0.106 |
| CACGAUC | -0.101 |
| UCCGCCC | -0.481 |
| GACGCGC | -0.257 |
| UGGAUCU | -0.18 |
| CUGAGCC | -0.253 |

Series 5
Target: ABI1, truncated, D143A, DHFR fusion (Arabidopsis thaliana)
Method: DHFR PCA, deep sequencing
Matrix: yeast
Notes: methotrexate growth selection, single substitutions
With: (+)-ABA 0.0091 µM
Reference: wild-type fitted maximum
Direction: higher = stronger binding
Parent: PYL1, truncated, DHFR fusion (Arabidopsis thaliana); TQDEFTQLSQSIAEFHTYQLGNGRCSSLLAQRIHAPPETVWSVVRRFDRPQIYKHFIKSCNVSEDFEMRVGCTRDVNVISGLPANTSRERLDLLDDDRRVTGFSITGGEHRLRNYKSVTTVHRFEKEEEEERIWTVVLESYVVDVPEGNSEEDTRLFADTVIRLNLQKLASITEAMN
| Change | relative binding score [%] |
| --- | --- |
| P50D | 11.2 |
| V118S | 8.11 |
| M68P | 0.833 |
| L112C | -4.49 |
| T101V | 41.3 |
| N22Q | 46 |
| E151P | 45.2 |
| S171F | 15.6 |
| W41C | -2.01 |
| I172Q | -8.57 |
| D144G | 2.34 |
| V145K | -3.64 |
| I57S | 0.979 |
| S59M | -3.36 |
| E125H | 40.4 |
| S117R | -4.81 |
| I12K | -7.45 |

Series 6
Target: Hepatocyte nuclear factor 3-alpha (Foxa1, Mus musculus, UniProt P35582, residues 1-468, full length assumed)
Chain of UniProt P35582 (whole entry, looked up): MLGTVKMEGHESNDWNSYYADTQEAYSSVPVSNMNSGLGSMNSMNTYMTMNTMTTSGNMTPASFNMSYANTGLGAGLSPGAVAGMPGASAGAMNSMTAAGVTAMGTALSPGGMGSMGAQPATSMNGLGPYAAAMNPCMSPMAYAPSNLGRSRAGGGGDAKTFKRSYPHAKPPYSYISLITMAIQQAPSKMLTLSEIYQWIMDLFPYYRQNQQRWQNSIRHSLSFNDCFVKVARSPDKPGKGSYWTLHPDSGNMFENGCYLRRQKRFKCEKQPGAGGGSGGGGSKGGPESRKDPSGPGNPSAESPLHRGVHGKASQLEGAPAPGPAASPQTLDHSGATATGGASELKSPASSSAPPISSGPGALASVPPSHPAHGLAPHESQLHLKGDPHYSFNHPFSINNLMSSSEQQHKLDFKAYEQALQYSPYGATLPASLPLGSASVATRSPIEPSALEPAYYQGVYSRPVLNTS
Method: EMSA with sequencing
Molecule type: double-stranded DNA, one strand shown
Matrix: in vitro
Concentration: 10 and 20 nM
Notes: whole designed probe, mean of two concentrations, ends assumed
Reference: negative control set to 0
Direction: higher = stronger binding
| Oligonucleotide | normalised bound fraction [ratio] |
| --- | --- |
| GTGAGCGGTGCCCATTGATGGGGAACATCTTGTAACTCACGCAGATTTGCAGGTTTCAAAAATTGTTATATATGACAGAAAAATCTGATTCTTAAATTATCCCTGTACCCAGAACTATGTAAACATGCCCGTAACCTGCTCTGAATACTCAAAATAGACTTTCATACATTTAGAGTTAATTTTTTAAATCAAAGAGTAGTTTTTAAAAGTGTAAACATTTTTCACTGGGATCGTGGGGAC | 0.378 |
| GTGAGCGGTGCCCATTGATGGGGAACTGAGACACCAAGCATAGCCCAGCACTTAATTTTTAAAAAGGCTTAAAGTGTCACATACAGAAGCTCATTAAGTTAACAAGTGTACAGATGCTTGTTTACTTATTACGCACAATCTTACGAGGCCACACAATCTGAGCGATGATTAGGAGCTCAAAGTTTAGATCCAATCTCAGGACAACATGAAATAAATGACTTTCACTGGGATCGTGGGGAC | 0.423 |
| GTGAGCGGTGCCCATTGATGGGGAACTCGGCCAGCCTGGCTTCTGCGCCCCGCCAGGAGGTCGCGGAGCGGAGCGCGGCCAGGAAGTGAGCTGAGAGTGACAGCTCCCCCCACGCTGTTTGTTTATTCTCTCCACACACTGGATGACTCATTCCTCTTCTTTCTTTCGGGAGGAGGGGAGAAAGGAGCGGGAGGGCGGGCGGGCAGGGGAGAGGCAGGCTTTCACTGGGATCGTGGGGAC | 0.323 |
| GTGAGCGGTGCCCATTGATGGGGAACCTATTTGTGTATTTTTTCATGTGCTGTATCATATCCTGTGATCACTTTCCCAGATGGTTCCTCGTGTGTTCATACTTACATTTCCCCACTGATGTTTACATTGTCTTTCTATTTTTGTTTTCCTTACTTAAACAAAACAAAACAAAAGAATGCTTATTCTAATTTCATTTTTTCCTTCGATGTCTTATAAAATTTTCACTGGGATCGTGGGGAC | 0.453 |
| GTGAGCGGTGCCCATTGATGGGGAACAAGCCTCCAGATAGAAGCCTCTGGGCTTCTTGCAGGAGTGACTTTGAGCAGAGCCATGATGTATACATGAACCATTAAGAAGCACATTCTCAGAGTAAACAGGGGTGCACAATATGAAATCTCATACTGATCACATATGCCAGTGTGATTGCAGGGTTTATTTTTAGGAGTTTCATTTGGGGATCTTTTTCCATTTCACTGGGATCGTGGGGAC | 0.0599 |
| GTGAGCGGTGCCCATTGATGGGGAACATTTTATTTGCTACAACAAGCAAGAAGGCTGAGGTTTATTGAGCAATAGCTGGGTTTTGTCAAACTTGCTTAAGGATTGCCTAAGACCAGCAAAATAATCTTGATAAAGTTGAAGAATGACCAGTTTTCCACTCTGCTGTGTTTGGAGGCTGACGAAACTGTCATTGACAAAATTGCCCTGATGGGACTGTTTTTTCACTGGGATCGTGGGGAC | -0.0419 |

Excerpt of the above (series 4):
| Oligonucleotide | 7-mer Z-score |
| --- | --- |
| CCGUAAU | -0.22 |
| CGCCUUC | -0.507 |
| CCUUUAC | -0.079 |
| CUUAUCG | -0.282 |
| GGAACCU | -0.0536 |
| CUUAGAA | 0.129 |
